# Measured values pooled from the literature.
# Numbered parts are unrelated; each lists some results of a single study. Substitutions count along the parent as printed.

# Sample 1 — target: CCNA2, cyclin fold, Cln2 fusion (human); method: yeast growth competition, sequencing; matrix: yeast; setting: strong parent motif; baseline: not given; reading: higher = stronger binding
# Parent: INSM1 docking peptide (human); PKAIRKLHFEDEV; partner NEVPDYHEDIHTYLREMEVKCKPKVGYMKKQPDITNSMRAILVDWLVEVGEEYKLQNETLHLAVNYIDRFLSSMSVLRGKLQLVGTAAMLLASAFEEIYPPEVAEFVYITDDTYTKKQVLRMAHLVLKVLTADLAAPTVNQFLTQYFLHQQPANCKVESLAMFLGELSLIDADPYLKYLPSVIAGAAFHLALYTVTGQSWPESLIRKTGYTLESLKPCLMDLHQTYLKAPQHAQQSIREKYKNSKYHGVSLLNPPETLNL
Substitution,normalised enrichment score
R5S,0.717
K6S,4.02
D11W,4.09
K2H,4.82
A3M,2.75
H8I,5.89
D11K,4.65
D11F,4.65
E10D,5.2
F9A,-0.0261
D11Q,4.92
A3N,0.577
R5Q,2.08
L7K,0.125
A3C,5.72
I4C,6.18
A3S,3.57
F9N,-0.0481
E12Q,4.98

# Sample 2 — method: RNA Bind-n-Seq; form: RNA; matrix: in vitro; tested at: 365 nM; baseline: no-protein control; reading: higher = stronger binding
# Target: RNA binding protein fox-1 homolog 2, RRM domain, GST-SBP tag (RBFOX2, Homo sapiens, UniProt O43251-10, residues 100-194)
# Setting: natural RNA segment, single round, ends assumed
# Target sequence (chain): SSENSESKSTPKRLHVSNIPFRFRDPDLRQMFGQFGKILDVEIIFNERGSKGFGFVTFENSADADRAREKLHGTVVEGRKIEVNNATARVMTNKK
Sequence,RBNS enrichment (R)
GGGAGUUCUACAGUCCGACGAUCAAGGCCUGUGUGCUGCUCUCAUGGCCCUGGUGCACCACCUUUCUGUGAAUCUCUCCCACUGGAUCCCUCUUACCUGCAACGUGUCUGUUCUCGUUCUGUAGCAUUUGUAAUGGAAUUCUCGGGUGCCAA,1.22
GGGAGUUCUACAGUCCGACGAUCAAGCCCAUUCCGGGAUGGGUGGCGAGCACAGGGUGCAUAAGCAAGCUGUUCUUCCCAGUCGGUAGGGGAGUGACCCUCUAGGACAGGAAGCUGGGCUGGCCCAGGCCAGUUGGAAUUCUCGGGUGCCAA,0.289
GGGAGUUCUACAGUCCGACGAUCUUGAAGCAAAUACAAUUCACAGCACAGUACACACAAAAACCCUGGCAUAAGACGGGGAGGUUCUUCUUAUUUUGUGAGCCGGUUGCCCUGGAAACGGAUAACAAAGGGCAUGGAAUUCUCGGGUGCCAA,0.398
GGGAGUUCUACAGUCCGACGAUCGGAGCCUGGACACUGCCAUCUCUAGAGCAGAGUGGAGGCCUGGACUCCCUUUGCUCACUCCAUUCGGGUCCACAGCUGAGGUUGCCGCUGACAAGAUGAAUGGGCACUGCUGGAAUUCUCGGGUGCCAA,0.325
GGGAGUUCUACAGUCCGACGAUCCGUCAAUGUAUAUCCUUUUAUAACUCUACCACUUUGGGGCAAGCUAUUCCAGCACUGGUUUUGAAUGCUGUAUGCAACCAGUCUGAAUACCACAUACGCUGCACUGUUCUUGGAAUUCUCGGGUGCCAA,21.3
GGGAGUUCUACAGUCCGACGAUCCUGCAGAUAUGUGUUCCCGUGUAAGCCAGUUUUCCCCUUUUACUCAGACUGAUUUCACCUAGAUUGUCACGGUUUCCUUCAUGUUAACUUUGCGUGACUUUGUUCUUCCUUGGAAUUCUCGGGUGCCAA,0.698
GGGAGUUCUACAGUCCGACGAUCUUUGUGGGAUGUCCCCAAAGGAAAGCUAUGUUCUAAUUUUAUCAUUUCCAUCUGUCUGGUUAUGUCAAGUUAAUUCAGAAAGAGAAGAGACAGUGACCAACCCUGAGAGGUGGAAUUCUCGGGUGCCAA,0.691
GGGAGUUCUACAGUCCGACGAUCAGUUAAGCACUUCCUUGGUGUGGGUAAAGAAUAAAGGGGAAAGAAACUACUUUAGAGCCUCUUUUUCUCCCAACUCAUAUUUUUGAUAGGAAAAACAGAAAACCCAUCCAUGGAAUUCUCGGGUGCCAA,0.405
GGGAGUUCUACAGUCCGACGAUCAAAGACUAGGUACUGUAAGCAUACAUUUGUGCGAGCUGGCUUAGGGUUGGUUCCUCAUCCUCCACCCUGACCUUUCCUCUGGCCUGUUCAAGGCCUGGUAAAGUCAGGCUUGGAAUUCUCGGGUGCCAA,0.146
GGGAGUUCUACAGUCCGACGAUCGUUGCAGGGUAACCAUGGUGGGAGGCCAGGAGUUAUCUUAUCUCAUCCUGGACCAAACAGAUAGGCCAGAACCAGCCUGCAUCCUGGGGCUGCUAUGUGGUUCAGUUAAUUGGAAUUCUCGGGUGCCAA,2.16
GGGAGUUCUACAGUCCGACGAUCACGUCUUAUUGUGGUAGGAUCAGCCCUCAUUUUGUUGCUUUUGUGAACUUUUUGUAGGGGACGAGAAAGAUCAUUGAAAUUCUGAGAAAACUUCUUUUAAACCUCACCUUUGGAAUUCUCGGGUGCCAA,0.626
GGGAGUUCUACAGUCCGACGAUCUUUUUAAGACUAAGGCAGUUUAUAGAAUGAAGUAUAUCAAUAUUCUUUUGGUUUCCCAAAGCAAUAUUUUACUUUUCAUUUAUUAUAGUUUGAAAGACAUUUUUCAUUGUUGGAAUUCUCGGGUGCCAA,0.665

# Sample 3 — method: aptamer microarray, sandwich; form: DNA with 2'F-ANA; matrix: in vitro; tested at: 200 nM; together with: Cy3 exosite-II aptamer, 400 nM; reading: higher = stronger binding; sequence: GGTTGGTGTGGTTGG
# Target: Prothrombin, mature alpha-thrombin (F2, Homo sapiens, UniProt P00734)
# Setting: whole 15-mer aptamer, many near background
Modification,mean fluorescence intensity [a.u.]
2'F-ANA at 1 7 11 12 14,75.2
2'F-ANA at 1 2 3 5 8 10 11 12 14 15,49.9
2'F-ANA at 1 4 5 10 13 15,48.2
2'F-ANA at 2 3 5 8 10 13 15,64.9
2'F-ANA at 1 6 7 12 14 15,69.5
2'F-ANA at 1 3 4 5 6 7 11 12 13,66.1
2'F-ANA at 1 4 5 6 7 10 11 12 14,46.3
2'F-ANA at 2 3 4 7 8 10 11 12 15,323
2'F-ANA at 1 2 6 9 11 12 13,184
2'F-ANA at 1 2 3 4 5 6 7 8 9 10 12 14 15,67.7
2'F-ANA at 1 3 4 5 7 9 11 14 15,84.7
2'F-ANA at 2 5 8 10 11 15,47.3
2'F-ANA at 1 3 5 7 8 9 10 11 13,48.9
2'F-ANA at 7 8 10 11 13 15,162
2'F-ANA at 1 4 5 6 7 8 10 12 13 15,50.9
2'F-ANA at 2 4 5 9 12 13 15,79.7
2'F-ANA at 1 6 7 10 12 14,44.8

# Sample 4 — method: RNA Bind-n-Seq; form: RNA; matrix: in vitro; tested at: 200 nM; setting: whole 134-nt RNA, ends assumed; together with: 150 mM KCl; baseline: input library; reading: higher = stronger binding
# Target: Fragile X messenger ribonucleoprotein 1, C-terminal low-complexity region (Fmr1, Mus musculus, UniProt P35922)
Sequence,log2 enrichment
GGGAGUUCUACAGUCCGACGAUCGUCCUGUGCUACACAUCGUAUGUACCGAAUCGGGGAAAAAGGAAAAAGGGAAAAAGGGGAAAGUAUUAUGUUACGCCGUUCGGAUCUGCAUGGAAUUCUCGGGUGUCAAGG,-0.116
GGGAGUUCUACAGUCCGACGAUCUUGUGAGAGCCACAGGAAAAGCAAGAAGGAGAAGAAGAAAAAGAAAAAGAGGAAACACAAGAAAGAGAAGAAGAAGAAAGACAAAGAGCAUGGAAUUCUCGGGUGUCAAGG,0.201
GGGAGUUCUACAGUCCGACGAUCAAGUCCUGUGCUACACAUCGUAUGUACCGAAUCGGUUUUGGGUUUUGGGGUUUUGGGAAAGUAUUAUGUUACGCCGUUCGGAUCUGCACUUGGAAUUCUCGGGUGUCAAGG,-0.21
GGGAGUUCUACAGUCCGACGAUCUCCUGUGCUACACAUCGUAUGUACCGAAUCGGGGCCCCCGGGGCCCCCGGCCCCCGGGGAAAGUAUUAUGUUACGCCGUUCGGAUCUGCAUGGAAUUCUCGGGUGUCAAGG,-0.353
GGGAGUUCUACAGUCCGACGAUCAAGUCCUGUGCUACACAUCGUAUGUACCGAAUCGGAAAGGAAAAAGGUUUUUUUGGAAAGUAUUAUGUUACGCCGUUCGGAUCUGCACUUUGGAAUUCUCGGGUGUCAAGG,-1.2
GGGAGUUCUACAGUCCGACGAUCUAACUUUAGAGGAGGAUCUGAUGGAUAUGGCAGUGGACGUGGAUUUGGGGAUUGCUAUAAUGGGUAUGGAGGAGGACCUGGAGGUGGCAAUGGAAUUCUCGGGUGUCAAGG,0.348
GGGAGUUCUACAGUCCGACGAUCGUCCUGUGCUACACAUCGUAUGUACCGAAUCGGGUUUUUGGGAAAAAGGGUUUUUGGGAAAGUAUUAUGUUACGCCGUUCGGAUCUGCACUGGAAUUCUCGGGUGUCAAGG,-0.282
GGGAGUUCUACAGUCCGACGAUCCUCAAGUCCUGUGCUACACAUCGUAUGUACCGAAUCGGGGAGGGGAGGGAGGGGAAAGUAUUAUGUUACGCCGUUCGGAUCUGCACUUCCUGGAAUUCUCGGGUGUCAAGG,1.23
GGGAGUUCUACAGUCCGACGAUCACCAUGCAGGUGGGCAUCUUUGGGAAGUGGGGCAAGGGGGGGAUAGGGAUGGGGGUAACACUUUGGGAACAGGUGGUCCCAGGUCGUUUCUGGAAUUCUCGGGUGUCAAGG,0.645
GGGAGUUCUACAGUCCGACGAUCUCCUGUGCUACACAUCGUAUGUACCGAAUCGGUUUUUUUGGUUUUUUUGGUUUUUUUGGAAAGUAUUAUGUUACGCCGUUCGGAUCUGCAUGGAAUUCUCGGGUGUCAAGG,-0.145
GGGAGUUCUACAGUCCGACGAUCCUGUGCUACACAUCGUAUGUACCGAAUCGGGAAAAAAAGGAAAAAAAGGGGAAAAAAAGGGAAAGUAUUAUGUUACGCCGUUCGGAUCUGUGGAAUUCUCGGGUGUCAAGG,-0.901
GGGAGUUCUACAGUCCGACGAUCAAGUCGCGUGUCUAGGUGAGUCGCGGUGGGUCCUCGCUUGCAGUUCAGCGACCACGGUGGGUACCGUUUUUGCGAGGAUUGUUUGUCCCCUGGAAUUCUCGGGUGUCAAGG,-1.39
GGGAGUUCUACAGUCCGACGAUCUGACUUUAGAGGAGGAUCUGAUGGAUAUGGCAGUGGACGUGGAUUUGGGGAUGGCUAUAAUGGGUAUGGAGGAGGACCUGGAGGUGGCAAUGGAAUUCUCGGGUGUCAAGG,0.324
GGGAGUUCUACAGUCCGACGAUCCAAGUCCUGUGCUACACAUCGUAUGUACCGAAUCGGGGCCGGGGCCGGGGCCGGGGAAAGUAUUAUGUUACGCCGUUCGGAUCUGCACUUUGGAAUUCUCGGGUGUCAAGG,-0.487

# Excerpt of the above (sample 1):
Substitution,normalised enrichment score
I4C,6.18
R5Q,2.08
F9N,-0.0481
E10D,5.2
D11Q,4.92
A3C,5.72
A3M,2.75
